Values quoted from earlier work that unrelated publications cite.
Each numbered part shows a few of the values that one paper quotes. ± gives the spread as reported.
UniProt Q8JUX6, sequence (whole entry, looked up): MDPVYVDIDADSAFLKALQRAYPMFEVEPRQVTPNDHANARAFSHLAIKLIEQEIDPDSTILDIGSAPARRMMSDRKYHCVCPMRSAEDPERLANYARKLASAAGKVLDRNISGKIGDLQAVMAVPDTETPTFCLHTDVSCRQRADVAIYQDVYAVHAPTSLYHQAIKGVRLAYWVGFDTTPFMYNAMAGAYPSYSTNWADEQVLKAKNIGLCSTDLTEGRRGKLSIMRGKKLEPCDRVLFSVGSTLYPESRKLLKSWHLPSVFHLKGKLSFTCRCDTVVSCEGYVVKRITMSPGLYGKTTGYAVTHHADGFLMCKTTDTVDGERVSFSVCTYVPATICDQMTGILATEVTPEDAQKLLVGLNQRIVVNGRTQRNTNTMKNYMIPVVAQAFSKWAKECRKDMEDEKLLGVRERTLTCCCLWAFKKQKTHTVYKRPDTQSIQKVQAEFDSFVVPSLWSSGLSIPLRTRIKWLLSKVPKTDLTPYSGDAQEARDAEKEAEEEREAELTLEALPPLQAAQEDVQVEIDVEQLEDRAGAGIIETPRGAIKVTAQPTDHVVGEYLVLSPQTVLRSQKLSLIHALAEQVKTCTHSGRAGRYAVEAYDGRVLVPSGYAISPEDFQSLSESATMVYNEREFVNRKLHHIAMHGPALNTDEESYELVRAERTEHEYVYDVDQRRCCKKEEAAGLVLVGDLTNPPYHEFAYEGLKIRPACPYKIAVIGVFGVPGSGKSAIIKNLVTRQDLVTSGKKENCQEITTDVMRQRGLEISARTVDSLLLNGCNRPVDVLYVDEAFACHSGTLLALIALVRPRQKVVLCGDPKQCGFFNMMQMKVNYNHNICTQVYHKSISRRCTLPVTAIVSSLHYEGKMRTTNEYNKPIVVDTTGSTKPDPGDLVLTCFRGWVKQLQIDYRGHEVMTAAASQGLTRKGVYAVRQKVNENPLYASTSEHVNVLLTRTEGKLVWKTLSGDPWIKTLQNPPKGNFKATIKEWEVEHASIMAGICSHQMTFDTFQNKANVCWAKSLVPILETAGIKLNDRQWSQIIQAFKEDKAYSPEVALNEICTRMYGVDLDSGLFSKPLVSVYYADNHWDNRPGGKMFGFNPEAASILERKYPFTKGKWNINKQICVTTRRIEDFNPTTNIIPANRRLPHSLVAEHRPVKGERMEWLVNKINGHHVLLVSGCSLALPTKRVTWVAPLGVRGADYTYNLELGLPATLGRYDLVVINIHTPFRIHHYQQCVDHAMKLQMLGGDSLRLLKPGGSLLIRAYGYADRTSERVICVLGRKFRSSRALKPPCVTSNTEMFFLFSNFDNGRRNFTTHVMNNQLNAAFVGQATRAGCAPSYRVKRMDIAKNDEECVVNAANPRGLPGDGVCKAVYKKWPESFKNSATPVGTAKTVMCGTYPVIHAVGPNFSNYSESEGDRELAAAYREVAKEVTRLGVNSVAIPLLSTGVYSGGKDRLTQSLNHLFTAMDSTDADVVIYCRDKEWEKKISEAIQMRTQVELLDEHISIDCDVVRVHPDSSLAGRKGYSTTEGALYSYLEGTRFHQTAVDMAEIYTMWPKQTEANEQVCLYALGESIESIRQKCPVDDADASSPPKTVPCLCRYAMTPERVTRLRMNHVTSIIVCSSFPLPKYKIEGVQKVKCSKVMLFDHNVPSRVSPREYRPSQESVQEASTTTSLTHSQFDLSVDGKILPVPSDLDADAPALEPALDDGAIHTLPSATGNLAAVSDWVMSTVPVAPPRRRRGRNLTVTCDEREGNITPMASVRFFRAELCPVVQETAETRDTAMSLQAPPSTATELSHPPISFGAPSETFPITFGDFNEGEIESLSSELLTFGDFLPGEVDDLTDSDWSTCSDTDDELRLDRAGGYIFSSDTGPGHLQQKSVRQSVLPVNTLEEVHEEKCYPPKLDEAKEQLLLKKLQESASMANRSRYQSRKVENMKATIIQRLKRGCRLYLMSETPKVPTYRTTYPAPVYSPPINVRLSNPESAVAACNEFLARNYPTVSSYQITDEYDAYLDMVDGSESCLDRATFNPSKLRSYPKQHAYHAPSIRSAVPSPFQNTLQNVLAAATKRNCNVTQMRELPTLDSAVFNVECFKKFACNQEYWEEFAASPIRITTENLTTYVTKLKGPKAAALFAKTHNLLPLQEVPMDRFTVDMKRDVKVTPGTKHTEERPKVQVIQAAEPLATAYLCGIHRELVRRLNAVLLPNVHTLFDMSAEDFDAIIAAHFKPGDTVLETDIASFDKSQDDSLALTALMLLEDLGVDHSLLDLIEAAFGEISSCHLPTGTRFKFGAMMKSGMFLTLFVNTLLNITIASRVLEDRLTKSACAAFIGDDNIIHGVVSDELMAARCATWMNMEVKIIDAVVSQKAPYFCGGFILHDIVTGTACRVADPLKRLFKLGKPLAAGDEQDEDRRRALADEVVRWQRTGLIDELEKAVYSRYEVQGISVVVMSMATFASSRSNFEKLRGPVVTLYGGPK

Study 1 — organism: SARS-CoV-2; effect on: cytopathic effect; cell line: Caco-2; tested at: 10 µM
SMILES	inhibition
COc1ccnc(C[S+]([O-])c2nc3ccc(OC(F)F)cc3[nH]2)c1OC (stereo not drawn)	2.8%
O=C(O)c1ccc(N2C(=O)/C(=C\c3ccc(-c4ccc([N+](=O)[O-])cc4)o3)C=C2c2ccccc2)cc1	-7.5%
Cc1cc(-c2ccc(/N=N/c3ccc4c(S(=O)(=O)O)cc(S(=O)(=O)O)c(N)c4c3O)c(C)c2)ccc1/N=N/c1ccc2c(S(=O)(=O)O)cc(S(=O)(=O)O)c(N)c2c1O	34.8%
CN1CCc2cccc3c2[C@H]1Cc1ccc(O)c(O)c1-3	0.6%
Oc1cc2c(cc1O)C(c1ccccc1)CNCC2 (stereo not drawn)	0.272%
CC(C)c1cc(CNc2nc(Nc3cc(C4CC4)[nH]n3)cc(N3CCN(C)CC3)n2)on1	4.9%
C[C@H](NC(=O)/C(C#N)=C/c1cccc(Br)n1)c1ccccc1	8.2%
O=C1C=CC(=O)C2=C1C1c3ccccc3C2c2ccccc21	23.8%
CCC[C@H](NC(=O)/C(C#N)=C/c1cccc(Br)n1)c1ccccc1	-11.5%
FC(F)(F)c1cc(NC(=S)Nc2ccc(Br)cc2-c2nnn[nH]2)cc(C(F)(F)F)c1	19.3%
O=c1sn(-c2cccc3ccccc23)c(=O)n1Cc1ccccc1	-2.1%
Cc1ccccc1N(C)C(=O)c1ccc([S+]([O-])c2nccs2)c([N+](=O)[O-])c1 (stereo not drawn)	4%
CCn1c(-c2nonc2N)nc2cncc(CNC3CCNCC3)c21	2.3%
O=C1C(Cl)=C(N2CCOCC2)C(=O)N1c1ccc(Cl)c(Cl)c1	-14.6%
CC[C@]12C=CCN3CC[C@@]4(c5cc([C@@]6(C(=O)OC)C[C@@H]7C[C@@H](C(C)(F)F)C[N@](CCc8c6[nH]c6ccccc86)C7)c(OC)cc5N(C)[C@H]4[C@@](O)(C(=O)OC)[C@@H]1OC(C)=O)[C@@H]32	-7.1%
Oc1cc2c(cc1O)[C@H]1c3ccccc3CN[C@@H]1CC2 (racemic)	-0.754%
O=C(O)[C@H]1O[C@@H](Oc2cc3oc(-c4ccccc4)cc(=O)c3c(O)c2O)[C@H](O)[C@@H](O)[C@@H]1O	-3%
O=C(/C=C/c1ccc(O)c(O)c1)O[C@H](Cc1ccc(O)c(O)c1)C(=O)O	-7.3%
CN1CC[C@@]2(C)c3cc(O)ccc3N(C)[C@@H]12	-3.8%
Nc1nnc(Sc2ncc([N+](=O)[O-])s2)s1	3.5%
CN1CCN2c3ccccc3Cc3ccccc3C2C1 (stereo not drawn)	-1.4%
O=C(O)C1[O][Sb]2[O]C(=O)C([O]2)C(C(=O)O)[O][Sb]2[O]C(=O)C1[O]2 (stereo not drawn)	43.6%
N=c1c[n+](N2CCOCC2)[n-]o1	-6.9%
OC[C@H]1O[C@H]([S-])[C@H](O)[C@@H](O)[C@@H]1O.[Au+]	2.4%
C=CCN1CCc2cc(O)c(O)cc2C(c2ccccc2)C1 (stereo not drawn)	-5.3%

Study 2 — organism: SARS-CoV-2; effect on: viral cytopathic effect; cell line: Vero E6; tested at: 20 µM
Compound	inhibition [%]
N#C/C(=C\c1ccc(O)c(O)c1)C(=O)OCCc1cccs1	0.02
CN(C)[C@@H]1C(O)=C(C(N)=O)C(=O)[C@@]2(O)C(O)=C3C(=O)c4c(O)cccc4[C@@](C)(O)[C@H]3[C@H](O)[C@@H]12	-0.13
O=C(O)c1cc(/N=N/c2ccc(O)c(C(=O)O)c2)ccc1O	-0.11
O=c1c(O)c(-c2cc(O)c(O)c(O)c2)oc2cc(O)cc(O)c12	-0.28
CC1(C)C(/C=C/C=C/C=C/C=C2\N(CCCCS(=O)(=O)O)c3ccc4ccccc4c3C2(C)C)=[N+](CCCCS(=O)(=O)[O-])c2ccc3ccccc3c21	-0.23
CC1=NN(c2ccc(C)c(C)c2)C(=O)/C1=N\Nc1cccc(-c2cccc(C(=O)O)c2)c1O	6.62
O=C(O)c1c(Cl)c(Cl)c(Cl)c(Cl)c1-c1c2cc(I)c(=O)c(I)c-2oc2c(I)c(O)c(I)cc12	3.39

Other studies, line by line
rep papain-like protease: Replicase polyprotein 1ab, papain-like protease (rep, Severe acute respiratory syndrome coronavirus 2, UniProt P0DTD1)
SMILES	target or system	test	test system	setting	scale	quantity	result
CCc1cc(F)c(Cc2cnc(Nc3ccc(C#N)c(Cl)c3)o2)c(F)c1	HIV-1	viral replication	Y181C mutant			EC50	0.007 µM
CCN(CC)CCCC(C)Nc1c2ccc(Cl)cc2nc2ccc(OC)cc12 (stereo not drawn)	Ebola virus	viral replication				IC50	1.31 µM
O=c1[nH]c2ccccc2n1C1CCN(CCCC(c2ccc(F)cc2)c2ccc(F)cc2)CC1	HEK293T-ACE2-TMPRSS2	pseudovirus entry	SARS-CoV-2 pseudovirus			IC50	4.5 µM
Nc1ccn(C[C@@H](CO)OCP(=O)(O)O)c(=O)n1	vaccinia virus					IC50	46.2 µM
Cc1ccc(N2CCN(C)CC2)cc1C(=O)NC1(c2cc(-c3cnn(C)c3)nc3ccccc23)CC1	Replicase polyprotein 1a, papain-like protease (Severe acute respiratory syndrome coronavirus 2, UniProt P0DTC1)					Ki	0.002 µM
C[C@H](c1cccc2ccccc12)N(C)Cc1cccc2[nH]ccc12	SARS-CoV-2 PLpro	enzyme activity, inhibitor				IC50	0.62 µM
CCN(CC)CCOc1ccc2c(c1)C(=O)c1cc(OCCN(CC)CC)ccc1-2	Ebola virus	viral replication				IC50	1.28 µM
CCn1ccc(-c2cc(-c3cnn(C)c3)cc([C@@H](C)NC(=O)c3cc(OCCN(C)C)ccc3C)c2)n1	SARS-CoV-2	viral replication				EC50	0.44 µM
COc1ccc2nc3cc(Cl)ccc3c(Nc3cc(CN4CCCC4)c(O)c(CN4CCCC4)c3)c2n1	rep papain-like protease	enzyme activity, inhibitor				IC50	1.8 µM
COc1ccc([C@@H]2CC(=O)c3c(O)cc(O[C@@H]4O[C@H](CO[C@@H]5O[C@@H](C)[C@H](O)[C@@H](O)[C@H]5O)[C@@H](O)[C@H](O)[C@H]4O)cc3O2)cc1O	Polyprotein P1234, nsP2 protease domain (Chikungunya virus, UniProt Q8JUX6)	enzyme activity, inhibitor				IC50	7.1 ± 1.1 µM
CC(C)(C)[C@H](NC(=O)C(F)(F)F)C(=O)N1C[C@H]2[C@@H]([C@H]1C(=O)N[C@H](C#N)C[C@@H]1CCNC1=O)C2(C)C	SARS-CoV-2			concentration not given, Paxlovid regimen		concentration over susceptibility	10 fold
COc1cc2c(c3oc(=O)c4c(c13)CCC4=O)[C@@H]1C=CO[C@@H]1O2			rhesus monkey, urine	24 h	baseline: dose	urinary excretion, chloroform-extractable	~10%
C[C@@H]1CCO[C@H]2Cn3cc(C(=O)NCc4ccc(F)cc4F)c(=O)c(O)c3C(=O)N12	HIV-1	viral replication	integrase R263K mutant			EC50	0.011 ± 0.003 µM
COCCn1c2c([n+](Cc3cnccn3)c1C)C(=O)c1ccccc1C2=O	SARS-CoV-2	antiviral activity				EC50	0.17 µM
NC(=O)c1nc(F)c[nH]c1=O	Lassa virus		mouse	oral		highest dose tested	300 mg/kg
Cc1nnc(C(=O)NC(C)(C)c2nc(C(=O)NCc3ccc(F)cc3)c(O)c(=O)n2C)o1	HIV-1	viral replication	integrase R263K mutant			EC50	0.0057 ± 0.0023 µM
C[C@H](c1cccc2ccccc12)N1CCC(C(=O)NCc2cc(F)cc(NC(=O)N3CCN(C)CC3)c2)CC1	SARS-CoV-2	viral replication				IC50	0.18 µM
COC(=O)c1ccc(O)c(O)c1	rep papain-like protease			concentration not given		inhibition	~70%
CN1CCCN(c2cccnc2)CC1	nicotinic acetylcholine receptor alpha7	binding, radioligand displacement		with: [3H]alpha-bungarotoxin		IC50	4.6 µM

Some of these lines once more (study 2):
Compound	inhibition [%]
N#C/C(=C\c1ccc(O)c(O)c1)C(=O)OCCc1cccs1	0.02
CN(C)[C@@H]1C(O)=C(C(N)=O)C(=O)[C@@]2(O)C(O)=C3C(=O)c4c(O)cccc4[C@@](C)(O)[C@H]3[C@H](O)[C@@H]12	-0.13
O=C(O)c1cc(/N=N/c2ccc(O)c(C(=O)O)c2)ccc1O	-0.11
O=c1c(O)c(-c2cc(O)c(O)c(O)c2)oc2cc(O)cc(O)c12	-0.28
CC1(C)C(/C=C/C=C/C=C/C=C2\N(CCCCS(=O)(=O)O)c3ccc4ccccc4c3C2(C)C)=[N+](CCCCS(=O)(=O)[O-])c2ccc3ccccc3c21	-0.23
CC1=NN(c2ccc(C)c(C)c2)C(=O)/C1=N\Nc1cccc(-c2cccc(C(=O)O)c2)c1O	6.62
